# Published values gathered from unrelated publications.
# Compare with care: the assays were run in different laboratories. Values joined by “and” are separate records of one study, mostly repeats; a detail may differ.
# Target: Ephrin type-A receptor 5 (EPHA5, Homo sapiens, UniProt P54756)
Structure (SMILES),assay,setting,how to read,measurement,value
Cc1ccc(-c2c(/C=C(\C#N)C(=O)NC(C)C)n(CCCO)c3ncnc(N)c23)cc1,"cell-free assay, competition with immobilised ligand",1 µM,,remaining binding,99%
CNC1C[S+]2CC[S+]3CC[S+](C1)[Ru-4]321([N]=C=S)[n]2c3ccc(OC)cc3c3c4c(c5cc(F)c[n+]1c5c32)C(=O)NC4=O (centres unmarked),KinomeScan,0.1 µM,reference: untreated,remaining binding,86%
CC(C)=CC1OC(C)(C)C2C=C3C(=O)C(Cl)=CC(O)C3C3C(O)C4OC4C(=O)C132 (centres unmarked),"cell-free assay, competition with immobilised ligand",10 µM,,remaining binding,86%
C=CC(=O)Nc1cccc(-c2cnc3[nH]cc(C(=O)NC(C)(C)C)c3n2)c1,kinase activity,0.1 µM,,inhibition,0% and 1%
COc1c(Cl)cccc1Nc1c(-c2ccncc2C#C[C@@]2(C)CCCN2C(=O)/C=C/CN(C)C)[nH]c2c1C(=O)NCC2,"cell-free assay, competition with immobilised ligand",3 µM,,remaining binding,98%
COCC12C(=O)NC3C4(C(OC)CC1O)C1CC5(O)C(OC)C(O)C(OC(C)=O)(C1C5OC(=O)c1ccccc1)C3(O)C(OC)C24 (centres unmarked),"kinase activity, inhibitor, ProQinase kinase profiling",25 µM,reference: control,remaining activity,89% and 101%
C=CC(=O)N1CCCC(n2c(=O)c3ncccc3n(Cc3ccc(Oc4ccccc4)cc3)c2=O)C1 (centres unmarked),"cell-free assay, competition with immobilised ligand",1 µM,,remaining binding,86%
NC(=O)[C@@H](O)C[C@H]1CCc2sc3ncnc(O[C@H]4CC[C@H](N5CCOCC5)CC4)c3c21,"enzyme activity, inhibitor",10 µM,,inhibition,16%
CCn1cc(C(=O)O)c(=O)c2c(N)c(F)c(NC3CCCCC3)cc21,kinase activity,"0.1 µM, together with: ATP at Km",,inhibition,7.6%
Cc1cccc(O[C@H]2CCC[C@@H](C(C)CNCc3ccncc3)C2)c1 (relative stereo),"kinase activity, kinome panel screening",1 µM,,inhibition,3%
Cc1nc2c(F)cc(-c3nc(Nc4ccc(CNC(=O)CCCCCCC(=O)NO)cc4)ncc3F)cc2n1C(C)C,"enzyme activity, inhibitor",1 µM,,inhibition,55%
C=CC(=O)N1Cc2nc(-c3cc(-c4cc(Cl)cnc4Cl)c(F)cc3F)n(-c3ccncn3)c2C1,cell-free assay,1 µM,,inhibition,9.3%
Cc1cnc2nc1Nc1cccc(c1)COC/C=C/COCc1cc(ccc1OCCN1CCOCC1)N2,,concentration not given,,percent of control,100%
C=CC(=O)N1CCc2ccc(-n3c(=O)ccc4cnc5ccc(-c6cnn(C)c6)cc5c43)cc21,KINOMEscan,1 µM,reference: DMSO control,remaining binding,100%
CN1CCN(Cc2ccc(-c3ccc(CO[C@H]4CCC[C@@H]4NC(=O)c4cc(-c5cnn(C)c5)cnc4N)cc3)cc2)CC1,"enzyme activity, inhibitor",0.1 µM,,inhibition,5%
COc1cc(Nc2nccc(-c3cnn4nc(OC)ccc34)n2)cc(C(F)(F)F)c1,"binding, competition with immobilised ligand",1 µM,,remaining binding,75%
CCN1CCN(Cc2ccc(NC(=O)c3ccc(C)c(NC(=O)c4cncc(-c5cccs5)c4)c3)cc2C(F)(F)F)CC1,"binding, competition with immobilised ligand",1 µM,,remaining binding,4.8%

# Repeated from above:
Structure (SMILES),assay,setting,how to read,measurement,value
COCC12C(=O)NC3C4(C(OC)CC1O)C1CC5(O)C(OC)C(O)C(OC(C)=O)(C1C5OC(=O)c1ccccc1)C3(O)C(OC)C24 (centres unmarked),"kinase activity, inhibitor, ProQinase kinase profiling",25 µM,reference: control,remaining activity,89% and 101%
